Experimental data gathered from unrelated publications.
Numbered parts are unrelated; each lists some results of a single study.
Chain of UniProt Q9Y2X8 (whole entry, looked up): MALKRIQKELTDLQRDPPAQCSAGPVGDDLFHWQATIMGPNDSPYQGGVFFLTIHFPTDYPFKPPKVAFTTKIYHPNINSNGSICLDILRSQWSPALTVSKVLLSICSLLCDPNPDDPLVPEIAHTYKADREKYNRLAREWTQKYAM

Sample 1
Target: Histone acetyltransferase KAT6A, winged helix 1, GST fusion (KAT6A, Homo sapiens, UniProt Q92794, residues 1-85)
Method: protein binding microarray
Molecule type: double-stranded DNA, one strand shown
Matrix: in vitro
Tested at: not given
Setting: 8-mer, flanks averaged, mean of 2 arrays, mostly near background
Baseline: not given
Direction: higher = stronger binding
Endpoint: E-score
Target sequence (chain): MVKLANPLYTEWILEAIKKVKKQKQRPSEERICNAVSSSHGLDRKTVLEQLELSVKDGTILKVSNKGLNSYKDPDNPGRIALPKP
CATGGTGC: -0.022
ACGACCAA: -0.251
ACCTTGTC: 0.134
ACGCCGTG: 0.391
ATCACCAG: -0.111
CTCGTCGA: -0.174
CAAAGGGC: -0.128
CGTGTCGA: 0.00772

Sample 2
Target: TAR DNA-binding protein 43, full length, His tag (TARDBP, Homo sapiens, UniProt Q13148, residues 1-414)
Method: RNA Bind-n-Seq
Molecule type: RNA
Matrix: in vitro
Tested at: 20 nM
Setting: 6-mer, flanks averaged, single round
Together with: 150 mM KCl
Baseline: input library
Direction: higher = stronger binding
Endpoint: 6-mer enrichment (R)
AUUAGC: 0.616
AGUCUU: 0.57
ACCGAA: 0.676
AAGGAU: 0.776
UGUCAC: 0.649
GAGUAA: 0.899
AGGCUG: 1.36
CUAAUG: 0.676

Sample 3
Target: RNA binding protein fox-1 homolog 2, RRM domain, GST-SBP tag (RBFOX2, Homo sapiens, UniProt O43251-10, residues 100-194)
Method: RNA Bind-n-Seq
Molecule type: RNA
Matrix: in vitro
Tested at: 365 nM
Setting: natural RNA segment, single round, ends assumed
Baseline: no-protein control
Direction: higher = stronger binding
Endpoint: RBNS enrichment (R)
Construct (chain): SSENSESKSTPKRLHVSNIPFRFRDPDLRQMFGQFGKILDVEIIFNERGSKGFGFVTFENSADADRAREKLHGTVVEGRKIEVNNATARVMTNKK
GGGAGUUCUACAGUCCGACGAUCGAAAACAGUUGGGUUUUGUUCAACCUACUGUAAGCUCUGGUGUAUGUUCUCAAGGCUAAUUUAUCUGAGCCACAGUUCAAGAGAGGAAGGAGCCUGGGGAGGUCAUGUCCUGGAAUUCUCGGGUGCCAA: 0.595
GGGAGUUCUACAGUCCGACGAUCCAUCUGGGCCAUUUGCCUUACUUCUCUGGAGCAUACCCACCCUCAGUUACGUGCCAGACCUGGACCGCAUUCUCCUGCCCUGUCCUGGAGCUGGCCCCUGGCUGCCUGGAUGGAAUUCUCGGGUGCCAA: 0.425
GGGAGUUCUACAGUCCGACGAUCUAUACAUAUGUAUAUAUAUUUAAAUACACAUAUAUAUUGUACAGAAUAAAAAUGUUUUAUUGAAUACCUGUGCUUAUGCGUUAGCUACAGGCUCAGCUUCCUUCCAGGGCUGGAAUUCUCGGGUGCCAA: 0.438
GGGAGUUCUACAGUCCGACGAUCCCCGUUCUUGGGUGUAAUGUUGCUCCCUGAUCCCAUAUCCCUGUGAAAAUGACUUAGGAAAAAACGUUUCUGAGCAAGCAUUCUGGCCCAUGCACUGGCUGAAGUGGGCAUGGAAUUCUCGGGUGCCAA: 0.758
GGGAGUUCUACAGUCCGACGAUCGUUUGCCAUUAGGGUAUUCAUUCAGAUAAUGUUUUCCUACUAGGAAUUACAAACUUUAAACACUUUUUAAAUCUUCAAAAUAUUUAAAACAAAUUUAAAGGGCCUGUUAAUGGAAUUCUCGGGUGCCAA: 0.445
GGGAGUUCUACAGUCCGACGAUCAAAAGGCAAGGGUUGAUCCCCGCAGCCCUUCUCUGAAUUCUCACUGCUGAUAUCUGAAUGAAGCAACAGAAGGCACGCAGUAACGCAGACGGGAACGGAAGCAGUUCCGCUGGAAUUCUCGGGUGCCAA: 0.426
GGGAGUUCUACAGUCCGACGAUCCUCUAGACCAAGGCAGGCAGCCCCGACAUCUGCUUCCUCUAUCGCCCAAUGCAAAAUCGAUGAAAUGGGGAGUUCUCUGGGCCAGGCCACAUUCACAUUCCCCUCCCCCUUGGAAUUCUCGGGUGCCAA: 0.419
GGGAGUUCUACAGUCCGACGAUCAGGAGCAGACUGCUGCUGUUUUGGGGCUAGAUCCUUUCCUCUCCUCUCUGCUGCACCACUGUCAGACUGGGCUCUAACCCAAGUGGAAUGCAACUGAGAGGGUCUUCCUGUGGAAUUCUCGGGUGCCAA: 0.298

Further values, each from its own experiment
B1: CNOT4 RING domain (UniProt O95628); chain MSRSPDAKEDPVECPLCMEPLEIDDINFFPCTCGYQICRFCWHRIRTDENGLCPACRKPYPED
B1 (CNOT4 RING domain) — lacZ reporter activity (UBE2D4 UBC core domain (UniProt Q9Y2X8); yeast two-hybrid; yeast; mostly zero background; baseline: not given, higher = stronger interaction): 14700

Repeated from above (sample 1):
ACGACCAA: -0.251
ACCTTGTC: 0.134
